Published values collected from several papers.
A part holds a random share of what one study measured.
UniProt Q6P3R8, sequence (whole entry, looked up): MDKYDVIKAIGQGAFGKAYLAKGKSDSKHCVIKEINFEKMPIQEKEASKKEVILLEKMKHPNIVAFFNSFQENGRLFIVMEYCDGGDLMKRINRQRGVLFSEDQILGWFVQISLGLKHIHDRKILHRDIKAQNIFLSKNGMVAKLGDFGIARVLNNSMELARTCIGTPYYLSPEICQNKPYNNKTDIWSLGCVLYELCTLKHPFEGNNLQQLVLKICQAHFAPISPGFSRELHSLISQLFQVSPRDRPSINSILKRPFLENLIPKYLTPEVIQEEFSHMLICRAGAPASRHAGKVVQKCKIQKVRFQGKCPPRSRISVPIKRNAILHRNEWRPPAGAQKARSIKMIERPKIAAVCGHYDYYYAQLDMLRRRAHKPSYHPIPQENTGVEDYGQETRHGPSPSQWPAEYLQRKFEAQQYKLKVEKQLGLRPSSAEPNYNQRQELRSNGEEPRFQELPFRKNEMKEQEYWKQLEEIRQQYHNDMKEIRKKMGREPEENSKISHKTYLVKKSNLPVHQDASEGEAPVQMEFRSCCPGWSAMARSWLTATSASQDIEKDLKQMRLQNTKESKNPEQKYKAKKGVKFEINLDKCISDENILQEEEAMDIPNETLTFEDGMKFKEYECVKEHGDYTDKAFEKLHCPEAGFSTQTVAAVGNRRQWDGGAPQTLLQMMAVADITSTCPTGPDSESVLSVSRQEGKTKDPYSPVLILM
UniProt P42680, sequence (whole entry, looked up): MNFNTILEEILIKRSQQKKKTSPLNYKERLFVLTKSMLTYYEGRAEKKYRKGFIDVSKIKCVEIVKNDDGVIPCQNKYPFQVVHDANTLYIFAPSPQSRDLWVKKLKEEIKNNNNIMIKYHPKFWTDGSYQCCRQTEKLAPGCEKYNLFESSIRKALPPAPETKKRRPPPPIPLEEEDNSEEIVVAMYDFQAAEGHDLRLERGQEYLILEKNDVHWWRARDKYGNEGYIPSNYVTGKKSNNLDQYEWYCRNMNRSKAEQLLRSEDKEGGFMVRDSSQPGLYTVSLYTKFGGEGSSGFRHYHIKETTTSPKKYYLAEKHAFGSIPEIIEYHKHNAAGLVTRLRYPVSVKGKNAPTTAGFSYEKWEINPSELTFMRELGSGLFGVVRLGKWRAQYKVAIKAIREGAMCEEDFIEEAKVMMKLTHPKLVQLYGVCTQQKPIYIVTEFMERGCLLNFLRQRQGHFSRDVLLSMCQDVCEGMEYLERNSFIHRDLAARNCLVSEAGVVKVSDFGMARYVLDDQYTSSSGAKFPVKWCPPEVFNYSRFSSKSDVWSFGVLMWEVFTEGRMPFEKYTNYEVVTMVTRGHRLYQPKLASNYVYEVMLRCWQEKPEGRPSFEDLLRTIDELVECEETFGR
UniProt Q06418, sequence (whole entry, looked up): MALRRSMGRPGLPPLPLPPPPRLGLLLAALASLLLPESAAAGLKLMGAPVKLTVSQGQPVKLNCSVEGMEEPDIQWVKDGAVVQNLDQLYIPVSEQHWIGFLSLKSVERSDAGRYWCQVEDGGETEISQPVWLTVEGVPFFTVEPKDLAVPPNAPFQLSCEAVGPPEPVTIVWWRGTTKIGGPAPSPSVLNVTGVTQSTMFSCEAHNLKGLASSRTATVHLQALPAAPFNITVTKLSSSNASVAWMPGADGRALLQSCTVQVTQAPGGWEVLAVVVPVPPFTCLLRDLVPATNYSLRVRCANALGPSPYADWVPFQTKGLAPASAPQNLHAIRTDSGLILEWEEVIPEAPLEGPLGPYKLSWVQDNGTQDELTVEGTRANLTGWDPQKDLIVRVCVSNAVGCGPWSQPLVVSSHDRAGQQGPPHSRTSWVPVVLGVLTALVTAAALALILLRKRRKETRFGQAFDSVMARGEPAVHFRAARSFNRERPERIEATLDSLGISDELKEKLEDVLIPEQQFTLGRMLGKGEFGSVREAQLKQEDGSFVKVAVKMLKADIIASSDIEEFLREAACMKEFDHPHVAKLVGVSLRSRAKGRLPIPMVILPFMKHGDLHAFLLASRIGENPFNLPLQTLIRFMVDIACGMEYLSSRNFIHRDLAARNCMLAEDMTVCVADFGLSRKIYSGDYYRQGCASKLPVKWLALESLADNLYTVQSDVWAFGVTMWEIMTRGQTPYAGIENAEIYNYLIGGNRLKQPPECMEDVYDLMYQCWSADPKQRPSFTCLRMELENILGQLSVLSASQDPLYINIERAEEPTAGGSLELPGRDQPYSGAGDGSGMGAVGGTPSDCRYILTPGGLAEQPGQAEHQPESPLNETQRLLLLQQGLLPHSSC
UniProt Q9UBS0, sequence (whole entry, looked up): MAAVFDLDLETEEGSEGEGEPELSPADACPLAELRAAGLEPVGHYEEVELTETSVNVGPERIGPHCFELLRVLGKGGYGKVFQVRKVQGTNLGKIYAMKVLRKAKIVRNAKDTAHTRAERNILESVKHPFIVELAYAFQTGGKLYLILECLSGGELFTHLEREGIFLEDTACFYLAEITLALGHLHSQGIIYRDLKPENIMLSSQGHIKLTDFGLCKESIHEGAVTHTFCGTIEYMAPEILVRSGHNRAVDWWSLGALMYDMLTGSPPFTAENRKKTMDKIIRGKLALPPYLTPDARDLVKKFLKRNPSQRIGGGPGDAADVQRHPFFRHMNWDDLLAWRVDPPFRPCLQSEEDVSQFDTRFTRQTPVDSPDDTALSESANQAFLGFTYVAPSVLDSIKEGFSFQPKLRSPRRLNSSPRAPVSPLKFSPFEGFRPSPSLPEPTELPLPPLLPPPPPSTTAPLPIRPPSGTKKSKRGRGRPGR
UniProt Q9H0K1, sequence (whole entry, looked up): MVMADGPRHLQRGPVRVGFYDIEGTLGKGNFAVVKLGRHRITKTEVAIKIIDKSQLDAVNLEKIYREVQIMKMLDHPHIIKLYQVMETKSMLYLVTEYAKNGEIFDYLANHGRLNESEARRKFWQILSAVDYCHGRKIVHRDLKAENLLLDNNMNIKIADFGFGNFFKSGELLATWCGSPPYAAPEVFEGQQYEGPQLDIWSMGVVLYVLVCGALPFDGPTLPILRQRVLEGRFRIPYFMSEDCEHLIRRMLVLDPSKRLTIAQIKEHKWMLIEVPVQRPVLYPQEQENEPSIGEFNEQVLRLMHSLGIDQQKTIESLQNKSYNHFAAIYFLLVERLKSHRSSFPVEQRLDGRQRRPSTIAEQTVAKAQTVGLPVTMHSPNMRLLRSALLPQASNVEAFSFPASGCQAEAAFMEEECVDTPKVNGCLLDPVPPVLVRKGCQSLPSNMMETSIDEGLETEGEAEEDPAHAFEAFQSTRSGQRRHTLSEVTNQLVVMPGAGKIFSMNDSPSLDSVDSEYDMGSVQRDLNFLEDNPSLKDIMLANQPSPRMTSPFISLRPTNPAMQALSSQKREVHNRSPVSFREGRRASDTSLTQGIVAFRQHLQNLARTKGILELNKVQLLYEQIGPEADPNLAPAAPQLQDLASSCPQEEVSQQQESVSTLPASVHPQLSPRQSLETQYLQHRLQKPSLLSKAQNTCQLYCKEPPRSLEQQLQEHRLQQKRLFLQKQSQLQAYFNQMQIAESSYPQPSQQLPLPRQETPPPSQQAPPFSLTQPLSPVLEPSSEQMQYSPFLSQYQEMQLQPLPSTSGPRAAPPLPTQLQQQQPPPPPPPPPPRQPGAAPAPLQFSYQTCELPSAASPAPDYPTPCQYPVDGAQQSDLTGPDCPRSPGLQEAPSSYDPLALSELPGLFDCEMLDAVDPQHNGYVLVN
UniProt O75676, sequence (whole entry, looked up): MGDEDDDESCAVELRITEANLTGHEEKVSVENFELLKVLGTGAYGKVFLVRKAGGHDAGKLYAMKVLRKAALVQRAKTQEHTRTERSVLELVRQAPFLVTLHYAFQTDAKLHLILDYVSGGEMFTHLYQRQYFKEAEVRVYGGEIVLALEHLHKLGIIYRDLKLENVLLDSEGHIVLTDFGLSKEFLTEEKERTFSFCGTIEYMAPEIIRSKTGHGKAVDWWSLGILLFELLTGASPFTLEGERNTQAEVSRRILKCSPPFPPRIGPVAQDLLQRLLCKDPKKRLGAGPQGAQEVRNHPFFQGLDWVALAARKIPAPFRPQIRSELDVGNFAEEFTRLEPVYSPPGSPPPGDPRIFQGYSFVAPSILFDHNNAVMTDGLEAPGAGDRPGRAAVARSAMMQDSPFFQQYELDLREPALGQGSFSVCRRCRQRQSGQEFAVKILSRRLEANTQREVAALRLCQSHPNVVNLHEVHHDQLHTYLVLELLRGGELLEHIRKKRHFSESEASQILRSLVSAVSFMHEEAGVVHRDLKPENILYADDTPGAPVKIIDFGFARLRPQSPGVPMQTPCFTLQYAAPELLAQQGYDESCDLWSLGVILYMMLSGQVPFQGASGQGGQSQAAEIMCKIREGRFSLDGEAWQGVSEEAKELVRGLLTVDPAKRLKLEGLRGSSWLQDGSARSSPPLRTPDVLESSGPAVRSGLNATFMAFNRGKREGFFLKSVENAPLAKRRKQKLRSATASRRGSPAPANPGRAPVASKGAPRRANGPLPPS

Set 1
SMILES: O=c1cc(N2CCOCC2)oc2c1ccc1ccccc12
Effect on: enzyme activity
Action: inhibitor
Concentration: 0.5 µM
Reference: control
Endpoint: remaining activity
SRSF protein kinase 1 (SRPK1, Homo sapiens, UniProt Q96SB4): 90.9%
Tyrosine-protein kinase Tec (TEC, Homo sapiens, UniProt P42680): 150%
Muscle, skeletal receptor tyrosine-protein kinase (MUSK, Homo sapiens, UniProt O15146): 75.6%
Tyrosine-protein kinase JAK1 (JAK1, Homo sapiens, UniProt P23458): 104%
Ribosomal protein S6 kinase beta-2 (RPS6KB2, Homo sapiens, UniProt Q9UBS0): 99.6%
Protein kinase C zeta type (PRKCZ, Homo sapiens, UniProt Q05513): 106%
Tyrosine-protein kinase receptor TYRO3 (TYRO3, Homo sapiens, UniProt Q06418): 97.3%
Tyrosine-protein kinase JAK2 (JAK2, Homo sapiens, UniProt O60674): 94.9%
Ephrin type-A receptor 2 (EPHA2, Homo sapiens, UniProt P29317): 110%
Serine/threonine-protein kinase PAK 5 (PAK5, Homo sapiens, UniProt Q9P286): 108%
Serine/threonine-protein kinase SIK2 (SIK2, Homo sapiens, UniProt Q9H0K1): 126%
Serine/threonine-protein kinase Sgk2 (SGK2, Homo sapiens, UniProt Q9HBY8): 102%
Serine/threonine-protein kinase MARK1 (MARK1, Homo sapiens, UniProt Q9P0L2): 99.5%
Ephrin type-B receptor 3 (EPHB3, Homo sapiens, UniProt P54753): 90%
Dual specificity tyrosine-phosphorylation-regulated kinase 1A (DYRK1A, Homo sapiens, UniProt Q13627): 79%
Serine/threonine-protein kinase PAK 1 (PAK1, Homo sapiens, UniProt Q13153): 93.5%
Tyrosine-protein kinase Yes (YES1, Homo sapiens, UniProt P07947): 98.7%
Dual specificity protein kinase CLK1 (CLK1, Homo sapiens, UniProt P49759): 98.3%

Set 2
SMILES: CNC(=O)Nc1ccc2c(c1)CC[C@@]21OC(=O)N(CC(=O)N(Cc2ccc(F)cc2)[C@@H](C)C(F)(F)F)C1=O
Effect on: cell-free assay
Method: competition with immobilised ligand
Concentration: 1 µM
Endpoint: remaining binding
Ribosomal protein S6 kinase alpha-4, N-terminal kinase domain (RPS6KA4, Homo sapiens, UniProt O75676): 100%
Serine/threonine-protein kinase Nek5 (NEK5, Homo sapiens, UniProt Q6P3R8): 100%
Serine/threonine-protein kinase WNK3 (WNK3, Homo sapiens, UniProt Q9BYP7): 83%
Dual specificity mitogen-activated protein kinase kinase 4 (MAP2K4, Homo sapiens, UniProt P45985): 100%
LIM domain kinase 2 (LIMK2, Homo sapiens, UniProt P53671): 88%
Ribosomal protein S6 kinase alpha-2, N-terminal kinase domain (RPS6KA2, Homo sapiens, UniProt Q15349): 76%
Myosin light chain kinase 2, skeletal/cardiac muscle (MYLK2, Homo sapiens, UniProt Q9H1R3): 84%
Ribosomal protein S6 kinase alpha-6, C-terminal kinase domain (RPS6KA6, Homo sapiens, UniProt Q9UK32): 84%
Serine/threonine-protein kinase haspin (HASPIN, Homo sapiens, UniProt Q8TF76): 100%
Non-receptor tyrosine-protein kinase TYK2, JH1 (TYK2, Homo sapiens, UniProt P29597): 91%
Phosphatidylinositol 4,5-bisphosphate 3-kinase catalytic subunit alpha isoform (PIK3CA, Homo sapiens, UniProt P42336, Q546K): 79%
Ephrin type-A receptor 7 (EPHA7, Homo sapiens, UniProt Q15375): 88%

Set 3
Target: Interferon regulatory factor 7, full length, phosphomimetic (IRF7, Homo sapiens, UniProt Q92985, residues 1-503, S471D/S472D/S475D/S476D/S477D/S483D/S484D/S487D)
UniProt Q92985, sequence (whole entry, unmodified, looked up): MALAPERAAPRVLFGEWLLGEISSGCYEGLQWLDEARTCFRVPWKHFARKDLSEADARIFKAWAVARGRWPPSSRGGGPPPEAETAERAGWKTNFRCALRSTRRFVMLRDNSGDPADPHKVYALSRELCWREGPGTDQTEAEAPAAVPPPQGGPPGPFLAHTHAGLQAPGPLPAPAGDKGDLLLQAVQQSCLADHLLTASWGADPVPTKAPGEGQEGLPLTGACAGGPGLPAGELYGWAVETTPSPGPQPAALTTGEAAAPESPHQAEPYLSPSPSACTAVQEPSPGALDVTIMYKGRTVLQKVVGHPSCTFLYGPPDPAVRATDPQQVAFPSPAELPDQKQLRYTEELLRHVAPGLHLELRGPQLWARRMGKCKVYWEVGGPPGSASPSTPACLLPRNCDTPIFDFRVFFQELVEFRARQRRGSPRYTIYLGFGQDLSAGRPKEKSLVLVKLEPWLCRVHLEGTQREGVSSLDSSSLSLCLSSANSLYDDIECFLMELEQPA
Method: protein-binding microarray
Form: double-stranded DNA, one strand shown
Sample: in vitro
Concentration: 2200 nM top
Setting: 60-bp whole probe
With: salmon DNA 0.4 mg/ml
Reference: random background probes
Direction: higher = stronger binding
Endpoint: fitted relative affinity
All sequences stand within: GCCTAGCAC … GTCTTGATTCGCTTGACGCTGCTG
GGTGGTCTGGGACCCTCCCCGTGCTAG: -1.02 z-score
TCACTTTTCATTTTCTTACTGTGCTAG: 5.81 z-score
GACGGTTTCCTGTTCCTGACGTGCTAG: 3.73 z-score
TCATGGTTCTGCTTCTTACTGTGCTAG: 1.57 z-score
CCTTTTATGGTTTTTTTTTAGTGCTAG: 1.63 z-score
TTAGATCTCACTATCGATTAGTGCTAG: 0.493 z-score
GACGGTCTCGGTCTCGCGACGTGCTAG: 0.135 z-score
TCATATATACAAACTAAGACTGTGCTA: -0.137 z-score

Further values, each from its own experiment
CCOC(=O)[C@@H]1CSCC(=O)N[C@@H](CC)C(=O)N(C)[C@@H](C)C(=O)N[C@@H](CC(C)C)C(=O)N2CCC[C@H]2C(=O)N(CC(C)C)CC(=O)N[C@H](CC(C)C)C(=O)N(C)[C@@H](C)C(=O)N[C@@H](CC(C)C)C(=O)N1C — logD (hydrocarbon/water): 1.16
